Measured values from different studies.
Parts stem from different laboratories: compare values within a part only. Changes are numbered by the printed parent chain.

Set 1
Target: RING finger protein unkempt homolog, zinc fingers 1-6, GST-SBP tag (UNK, Homo sapiens, UniProt Q9C0B0, residues 30-357)
Technique: RNA Bind-n-Seq
Form: RNA
Sample: in vitro
Concentration: not given
Notes: RNA with constant flanks, human and mouse sites, ends assumed
Reference: input RNA pool
Direction: higher = stronger binding
Shared flanks, not repeated: GGGAGUUCUACAGUCCGACGAUC … CAACAGAGGAUUGAGCAUCA
Target sequence (chain): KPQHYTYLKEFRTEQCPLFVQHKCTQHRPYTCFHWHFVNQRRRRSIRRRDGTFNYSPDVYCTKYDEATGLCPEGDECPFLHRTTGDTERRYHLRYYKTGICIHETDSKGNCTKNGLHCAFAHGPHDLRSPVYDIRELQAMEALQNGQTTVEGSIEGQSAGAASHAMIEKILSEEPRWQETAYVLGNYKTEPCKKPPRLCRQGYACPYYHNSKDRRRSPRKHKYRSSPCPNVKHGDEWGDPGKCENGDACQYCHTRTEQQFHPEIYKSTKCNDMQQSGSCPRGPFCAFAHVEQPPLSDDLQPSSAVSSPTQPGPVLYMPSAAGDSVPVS
Strand	bound/input enrichment
AUAGCUUUCCAAAAGAAGCUCUUUCAGACCCUGAGGAGACACCCUUCCUAUCCCAAAAUAAUAGAAGAAUUUGUUAGUGGCCUGGAGUCUUACAUUGAGGAUGAAGACAGUUUCAGGAAC	4.43 ratio
CACACUGCUGCUAUGGAUAUGCUGGGAGGAUCUGGUGUUGAAAACCAAUGUAGAAAAGUUGACAUCAUUGCGGACGCUGCAUAUUCCAUUUUCAAAAGGCCAAAAAGUUUUACUGGCAAC	0.186 ratio
GCCACAUUUGCUAUUUCCAUCCUGCAACAGUUGGAGAUUGAGUUCAAGGAGACCCAAGCACUAGUAUUGGCCCCCACCAGAGAACUGGCUCAACAGAUCCAAAAGGUAAUUCUGGCACUU	0.163 ratio
AGUCGUACUGGCUUGCCCCCGGUAACUGAUGAAAACCAUGUCAUUGUAAAAACGGACAGUCAGCUCGAAGACCUGGGCUACUGUGUGUUCAAUAAGUACACAGUCCCAUUGCCAUCACCU	0.046 ratio
CAUGCUUUGAAGCUGGACUCUUUUGGCCAGUUUAUUGAAUUAUUACCCAGCCUAGAGUUUAUUUCACUGGAUCAGAUGUUUCGUGAACCACCCAAGGGUUGUGCUCGAGUUGGUCUGAGU	0.433 ratio

Set 2
Target: CCNE2, cyclin fold, Cln2 fusion (human)
Technique: yeast growth competition, sequencing
Sample: yeast
Notes: weak parent motif
Reference: not given
Direction: higher = stronger binding
Starting sequence: CDC6 docking peptide (human); TLKGRRLVFDNQL; partner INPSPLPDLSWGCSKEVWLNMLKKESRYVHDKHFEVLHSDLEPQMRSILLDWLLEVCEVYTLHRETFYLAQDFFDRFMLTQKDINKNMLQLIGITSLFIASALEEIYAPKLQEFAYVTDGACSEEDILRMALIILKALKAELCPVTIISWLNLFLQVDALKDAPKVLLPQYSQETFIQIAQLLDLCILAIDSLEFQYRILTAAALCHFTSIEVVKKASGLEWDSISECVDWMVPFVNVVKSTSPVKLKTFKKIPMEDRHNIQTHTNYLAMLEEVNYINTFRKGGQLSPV
Variant	normalised enrichment score
TLKGRRLVFDNGL [Q12G]	1.42
TLKGRRYVFDNQL [L7Y]	1.11
TLKGRRLVFDNQS [L13S]	0.721
TLKGRRLVFDAQL [N11A]	0.781
TCKGRRLVFDNQL [L2C]	0.461
TLKGSRLVFDNQL [R5S]	-1.16
ILKGRRLVFDNQL [T1I]	0.423
TLKGRRLYFDNQL [V8Y]	0.254
TMKGRRLVFDNQL [L2M]	0.0877

Set 3
Target: RNA binding protein fox-1 homolog 2, RRM domain, GST-SBP tag (RBFOX2, Homo sapiens, UniProt O43251-10, residues 100-194)
Technique: RNA Bind-n-Seq
Form: RNA
Sample: in vitro
Concentration: 365 nM
Notes: natural RNA segment, single round, ends assumed
Reference: no-protein control
Direction: higher = stronger binding
Shared flanks, not repeated: GGGAGUUCUACAGUCCGACGAUC … UGGAAUUCUCGGGUGCCAA
Residues (chain): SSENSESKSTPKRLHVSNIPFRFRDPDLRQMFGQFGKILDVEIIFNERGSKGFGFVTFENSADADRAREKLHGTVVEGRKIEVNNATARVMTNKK
Strand	RBNS enrichment (R)
AUGGUGCCAUCUGACUUUGAGAGCAUAGAAGUCUUUCCCCAGUCUUCUUCAGGGUCUCCCCCCAACCCAACCCAACCAGAUGCUCCCACUUUUAGACAUCUUGUAAUGAA	0.677
CUUUCCCAAUGCCCUUGCCUGCCCUGGAGCUUCUAGGGCCACCUCUAGCAUCUGGAGACCGAAUAUCCCCAUGCUCAGAAGUAAAGUGACAAUCAGAACCAGGUACAAGC	0.429
GAUAAGCUCUGCUGGAUCCAAGGGAUCCAGGCUAAGGGCGUUCAGUCUGCUGCAAACCAGUCUGGCCAGCACAGCAACCGCCCAUUGAGGACUUUCUUAAAGCUACUGGG	0.242
ACUGUAUCCUAUGAGUGACGUGUGUGUUGGGGGAGGGUGGGCCUGCCUGGUGUUACACAGAGCAUGGCGUGGCUGGUCUGGAGCGCAUAGCAAUAAUACUGUGCUGUGGU	2.03
UUCUUCAAAAGACGCAAUUGCAAUAGUAUUUUUUAGAUUUUAUCCAAGAAGUUUUUUGGGCAAAAAUCUUGGAUCAUUUUUAUGUAGCAUGAUUUUCCUUGGGAUGCAAA	6.14
UUGAUACUUAAGUUGUCGAACAGUAGACAUUACUUGUUUUAUUUAUGAUAUAUUUCAGCUUAAAGUUAUGUUAUUAUAUGUGGAAGUGUAAAUAUAGAUUUGGUGUUUUG	0.905
GAUUGAUUGAGCCUGCGAGGCCAAGGCUGCAGCAGGCUGUGAUUGCACCACUGCACUUCAGCUUGGGCAACAGAGCAAGACCCUGUCUCCGAAACAAAUAAAAAAUACUG	0.354

Single results of other studies
Molecule	target	assay	test system	setting	scale	measurement	value
PhoQ, residues 284 288 289 292 302 303 SASVAL	PhoP, residues 12 14 15 18 19 LHSVW (Escherichia coli, UniProt P23836)	Sort-seq, refers to: YFP reporter	E. coli	PhoQ-PhoP variant library, together with: 10 µM Mg2+	reference: high Mg2+ state, higher = stronger signaling	fold induction	1.34

For quick reference, copied from above (set 2):
Variant	normalised enrichment score
TLKGRRLVFDNGL [Q12G]	1.42
TLKGRRLVFDNQS [L13S]	0.721
TLKGRRLVFDAQL [N11A]	0.781
